{"data": "Measured values of several laboratories", "note": "Each line is one published result; not all experiments were run side by side."}
{"Structure (SMILES)": "Cc1c(Cl)c(C)[n+]([O-])c(Cl)c1-c1noc(-c2cc(O)c(O)c([N+](=O)[O-])c2)n1", "test": "refers to: Bloating", "system": "healthy Chinese subjects", "setting": "oral, 50 mg, 20 days", "measurement": "adverse drug reaction incidence", "result": "0%"}
{"Structure (SMILES)": "CC[C@H](C)CCCCC(=O)N[C@@H](CCN)C(=O)N[C@H](C(=O)N[C@@H](CCN)C(=O)N[C@H]1CCNC(=O)[C@H]([C@@H](C)O)NC(=O)[C@H](CCN)NC(=O)[C@H](CCN)NC(=O)[C@H](CC(C)C)NC(=O)[C@@H](Cc2ccccc2)NC(=O)[C@H](CCN)NC1=O)[C@@H](C)O", "test": "refers to: dry mouth", "system": "mild renal insufficiency", "setting": "intravenous, 0.75 mg/kg", "measurement": "adverse event incidence", "result": "14.3%"}
{"Structure (SMILES)": "NCCONC(=O)[C@@H]1CC[C@@H]2CN1C(=O)N2OS(=O)(=O)O", "test": "refers to: Severe severity", "system": "healthy Chinese men", "setting": "intravenous, 2 g, treatment-related", "measurement": "adverse event incidence", "result": "0%"}
{"Structure (SMILES)": "CNC(=O)c1ccc(-c2cnc3ncc(Cc4ccc5ncccc5c4)n3n2)cc1F", "test": "phase 1 clinical trial, refers to: peripheral edema", "system": "gastric cancer expansion cohort", "setting": "oral, 600 mg twice daily, grade 3 or 4", "measurement": "adverse event incidence", "result": "0%"}
{"Structure (SMILES)": "CC(C)n1c(Nc2cccnc2)nc2cnc(Nc3ccc(N4CCN(C)CC4)cc3)nc21", "test": "refers to: Toothache", "system": "healthy male subjects", "setting": "oral, 100 mg, added: gemfibrozil", "measurement": "adverse event incidence", "result": "7.1%"}
{"Structure (SMILES)": "Cc1cc(Nc2ccc(S(F)(F)(F)(F)F)cc2)n2nc(C(C)(F)F)nc2n1", "system": "Plasmodium falciparum malaria patients", "setting": "oral, 250 mg", "measurement": "adverse event Nausea", "result": "27.3%"}
{"Structure (SMILES)": "O=C1CCc2ccc(OCCCCN3CCN(c4cccc(Cl)c4Cl)CC3)cc2N1", "test": "refers to: Hypertension", "system": "genotyped patients, CYP2D6 poor metabolizers", "setting": "dose not given, long-acting oral or depot", "measurement": "adverse event incidence", "result": "0%"}
{"Structure (SMILES)": "Cc1ccc(Sc2ccccc2N2CCNCC2)c(C)c1", "test": "TEAE dysphoria", "system": "healthy adult men", "setting": "oral, 10 mg single dose, 8 nights, fed", "measurement": "adverse event incidence", "result": "0%"}
{"Structure (SMILES)": "CC(=O)O[C@H]1C(=O)[C@@]2(C)[C@H]([C@H](OC(=O)c3ccccc3)[C@]3(O)C[C@H](OC(=O)[C@H](O)[C@@H](NC(=O)c4ccccc4)c4ccccc4)C(C)=C1C3(C)C)[C@]1(OC(C)=O)CO[C@@H]1C[C@@H]2O", "test": "refers to: decreased appetite", "system": "patients with advanced solid tumours", "setting": "intravenous, dose not given, grade 1 and 2, possibly related to drug", "measurement": "adverse event incidence", "result": "31%"}
{"note": "A few entries again:"}
{"Structure (SMILES)": "CNC(=O)c1ccc(-c2cnc3ncc(Cc4ccc5ncccc5c4)n3n2)cc1F", "test": "phase 1 clinical trial, refers to: peripheral edema", "system": "gastric cancer expansion cohort", "setting": "oral, 600 mg twice daily, grade 3 or 4", "measurement": "adverse event incidence", "result": "0%"}
